Measured values collected from several papers.
Compare with care: the assays were run in different laboratories. ± gives the spread as reported.

| Structure (SMILES) | tested on | test | test system | setting | scale | quantity | result |
| --- | --- | --- | --- | --- | --- | --- | --- |
| Nc1ncc(-c2cc(-c3cnn(CC(F)(F)F)c3)ncc2F)nc1C(=O)NC1CNCC(F)C1 (stereo not shown) | CDKL1 | KINOMEscan |  | 1 µM | baseline: DMSO control | remaining binding | 71% |
| CC[n+]1cccc2cc(/C=N/NC(=O)C(=O)N/N=C/c3ccc4c(ccc[n+]4CC)c3)ccc21 | telomeric G4 DNA hybrid-2 | FRET melting |  | 1 µM, DNA 0.2 µM |  | ΔTm | 3.2 ± 0.8 °C |
| CNS(=O)(=O)Nc1nccc(Cc2c(C)c3ccc(Oc4ncccc4F)cc3oc2=O)c1F | CMK-86 | cell viability |  | 7 days |  | IC50 | 3.65 nM |
| C=CC(=O)Nc1cccc(Cn2ncc3cnc(Nc4cnn(CCOC)c4)nc32)c1 | BMPR1B human | binding, KINOMEscan |  | 100 nM | lower = stronger binding | percent of control | 67% |
| C[n+]1cc(/C=N/NC(=O)c2cc(C(=O)N/N=C/c3cc4ccccc4[n+](C)c3)ncn2)cc2ccccc21 | telomeric G4 DNA hybrid-2 | FRET melting |  | 1 µM, DNA 0.2 µM, together with: duplex DNA competitor 10 µM |  | ΔTm | 2.6 ± 0.4 °C |
| N=C(N)NCCC[C@@H]1NC(=O)[C@H](CCCNC(=N)N)NC(=O)[C@@H](CCCNC(=N)N)NC(=O)[C@@H](CCCNC(=N)N)NC(=O)[C@@H](C(c2ccccc2)c2ccccc2)NC(=O)[C@H](Cc2c[nH]c3ccccc23)NC(=O)[C@@H](C(c2ccccc2)c2ccccc2)NC1=O | Aspergillus fumigatus |  | Af 293 | MIC, 12 h |  | reduction of viable cells | > 65% |
| O=C(N/N=C/c1ccc(C[n+]2ccccc2)cc1)c1cncc(C(=O)N/N=C/c2ccc(C[n+]3ccccc3)cc2)n1 | telomeric G4 DNA hybrid-2 | FRET melting |  | 1 µM, DNA 0.2 µM, together with: duplex DNA competitor 10 µM |  | ΔTm | 13.6 ± 0.9 °C |
| C=CC(=O)N1[C@@H](c2ccc3c(c2)OCO3)c2[nH]c3ccccc3c2C[C@H]1C(=O)N1CCN(C)CC1 | human cyclin E1 wild type-3xFLAG:CDK2 | co-IP with TMT proteomics, measured: PNN |  | concentration not given, Q9H307 | baseline: wild type DMSO | relative co-enrichment | 81% |
| CN1CCCNC(=O)c2cccc(c2)C(=O)NCCCN(C)CCCNc2cccc3c2C(=O)c2cccc(c2C3=O)NCCC1 | SAS | RNA-Seq, measured: KIF20B mRNA |  | 1 µM, 6 h | baseline: untreated cells | log2 fold change | -0.716 |
| COC1CN([C@H]2CC[C@H]([C@@]3(C)Oc4c(Cl)cc(C(=O)NCc5c(SC)cc(C)[nH]c5=O)c(C)c4O3)CC2)C1 |  | RNA-seq, measured: FZD3 | human, whole blood | dose not given, 24 h | baseline: pretreatment baseline | log2 fold change | 1.31 |
| CC(=O)[O-].O.O.O.O.[Ni+2].[O-]c1ccc(Br)cc1C=NCCN1CCOCC1 |  | superoxide scavenging |  | 120 µM |  | inhibition | 24.1% |
| O=C(N/N=C/c1cc[n+](CC2CC2)c2ccccc12)c1cncc(C(=O)N/N=C/c2cc[n+](CC3CC3)c3ccccc23)n1 | telomeric G4 DNA hybrid-2 | FRET melting |  | 1 µM, DNA 0.2 µM, together with: duplex DNA competitor 10 µM |  | ΔTm | 23.5 ± 0.3 °C |
| Cc1ncsc1-c1ccc(C(C)NC(=O)C2CC(O)CN2C(=O)C(NC(=O)CCCCCCCCCCN2CCCC(Nc3ncc(Cl)c(Nc4ccccc4S(=O)(=O)C(C)C)n3)C2)C(C)(C)C)cc1 (stereo not shown) | 22Rv1 | RNA-seq, measured: PPFIA3 mRNA |  | concentration not given | baseline: DMSO | log2 fold change | -1.01 |

Repeated from above:
| Structure (SMILES) | tested on | test | test system | setting | scale | quantity | result |
| --- | --- | --- | --- | --- | --- | --- | --- |
| C=CC(=O)N1[C@@H](c2ccc3c(c2)OCO3)c2[nH]c3ccccc3c2C[C@H]1C(=O)N1CCN(C)CC1 | human cyclin E1 wild type-3xFLAG:CDK2 | co-IP with TMT proteomics, measured: PNN |  | concentration not given, Q9H307 | baseline: wild type DMSO | relative co-enrichment | 81% |
